Measured values from different studies.
Compare with care: the assays were run in different laboratories. Values joined by “and” are separate records of one study, mostly repeats; a detail may differ. Numbers after ± are the reported error.
ROCK1: Rho-associated protein kinase 1 (ROCK1, Homo sapiens, UniProt Q13464)
UniProt Q13464, sequence (whole entry, looked up): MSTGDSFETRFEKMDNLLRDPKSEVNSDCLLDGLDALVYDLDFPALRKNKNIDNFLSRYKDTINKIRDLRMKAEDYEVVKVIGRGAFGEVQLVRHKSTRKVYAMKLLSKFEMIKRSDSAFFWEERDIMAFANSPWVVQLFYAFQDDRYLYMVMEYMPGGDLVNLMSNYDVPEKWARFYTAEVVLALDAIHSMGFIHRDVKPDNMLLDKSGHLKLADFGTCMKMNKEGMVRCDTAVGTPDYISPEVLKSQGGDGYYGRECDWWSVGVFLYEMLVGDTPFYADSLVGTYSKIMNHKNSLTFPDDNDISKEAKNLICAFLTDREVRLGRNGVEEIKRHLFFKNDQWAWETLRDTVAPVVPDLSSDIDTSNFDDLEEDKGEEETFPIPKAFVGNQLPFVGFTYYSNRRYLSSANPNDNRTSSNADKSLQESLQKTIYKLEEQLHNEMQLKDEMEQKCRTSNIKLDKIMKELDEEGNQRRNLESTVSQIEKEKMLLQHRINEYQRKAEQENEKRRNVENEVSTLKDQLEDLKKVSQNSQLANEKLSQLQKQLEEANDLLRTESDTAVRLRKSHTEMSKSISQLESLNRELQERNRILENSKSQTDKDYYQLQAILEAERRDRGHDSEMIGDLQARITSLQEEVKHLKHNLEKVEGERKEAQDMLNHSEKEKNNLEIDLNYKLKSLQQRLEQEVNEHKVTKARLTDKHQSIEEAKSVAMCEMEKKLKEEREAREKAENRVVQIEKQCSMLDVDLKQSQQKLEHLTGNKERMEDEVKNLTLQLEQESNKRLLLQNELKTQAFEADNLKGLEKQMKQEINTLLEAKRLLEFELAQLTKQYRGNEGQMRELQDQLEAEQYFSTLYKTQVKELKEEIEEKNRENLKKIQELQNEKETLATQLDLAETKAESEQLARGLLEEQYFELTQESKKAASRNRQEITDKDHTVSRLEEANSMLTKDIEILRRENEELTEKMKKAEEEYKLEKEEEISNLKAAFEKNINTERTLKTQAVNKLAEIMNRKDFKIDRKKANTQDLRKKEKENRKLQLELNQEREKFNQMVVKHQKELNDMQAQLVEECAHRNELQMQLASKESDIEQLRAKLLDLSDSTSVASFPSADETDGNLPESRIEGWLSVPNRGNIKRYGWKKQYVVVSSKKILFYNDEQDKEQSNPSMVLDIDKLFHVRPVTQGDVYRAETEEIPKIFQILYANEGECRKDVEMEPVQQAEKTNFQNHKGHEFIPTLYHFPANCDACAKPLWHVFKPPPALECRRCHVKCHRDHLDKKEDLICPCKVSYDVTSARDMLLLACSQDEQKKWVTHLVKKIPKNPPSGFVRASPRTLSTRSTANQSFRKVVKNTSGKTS
UniProt O14965, sequence (whole entry, looked up): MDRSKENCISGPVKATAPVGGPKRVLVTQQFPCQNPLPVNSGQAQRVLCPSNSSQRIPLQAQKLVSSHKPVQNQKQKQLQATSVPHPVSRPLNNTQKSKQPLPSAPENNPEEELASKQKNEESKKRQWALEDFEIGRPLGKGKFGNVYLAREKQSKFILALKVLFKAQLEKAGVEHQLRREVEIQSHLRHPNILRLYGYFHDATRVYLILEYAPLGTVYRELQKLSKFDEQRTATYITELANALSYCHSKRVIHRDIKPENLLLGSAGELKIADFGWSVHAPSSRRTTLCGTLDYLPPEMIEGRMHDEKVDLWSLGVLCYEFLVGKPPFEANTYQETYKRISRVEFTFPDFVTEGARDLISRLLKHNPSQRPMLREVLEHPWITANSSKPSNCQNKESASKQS
UniProt P08588, sequence (whole entry, looked up): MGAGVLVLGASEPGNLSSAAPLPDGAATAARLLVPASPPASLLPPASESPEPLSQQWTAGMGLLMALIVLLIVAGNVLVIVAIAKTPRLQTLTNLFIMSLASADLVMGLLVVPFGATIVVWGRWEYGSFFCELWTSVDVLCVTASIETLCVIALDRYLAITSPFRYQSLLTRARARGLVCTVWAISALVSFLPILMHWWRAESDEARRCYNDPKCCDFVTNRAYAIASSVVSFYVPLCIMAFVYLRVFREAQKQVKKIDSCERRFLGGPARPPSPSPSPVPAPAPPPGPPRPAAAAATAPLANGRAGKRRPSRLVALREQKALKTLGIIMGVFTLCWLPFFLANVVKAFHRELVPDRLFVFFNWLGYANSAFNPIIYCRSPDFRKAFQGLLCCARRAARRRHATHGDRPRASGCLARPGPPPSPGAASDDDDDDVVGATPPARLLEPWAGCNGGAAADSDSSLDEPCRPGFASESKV
UniProt Q13976, sequence (whole entry, looked up): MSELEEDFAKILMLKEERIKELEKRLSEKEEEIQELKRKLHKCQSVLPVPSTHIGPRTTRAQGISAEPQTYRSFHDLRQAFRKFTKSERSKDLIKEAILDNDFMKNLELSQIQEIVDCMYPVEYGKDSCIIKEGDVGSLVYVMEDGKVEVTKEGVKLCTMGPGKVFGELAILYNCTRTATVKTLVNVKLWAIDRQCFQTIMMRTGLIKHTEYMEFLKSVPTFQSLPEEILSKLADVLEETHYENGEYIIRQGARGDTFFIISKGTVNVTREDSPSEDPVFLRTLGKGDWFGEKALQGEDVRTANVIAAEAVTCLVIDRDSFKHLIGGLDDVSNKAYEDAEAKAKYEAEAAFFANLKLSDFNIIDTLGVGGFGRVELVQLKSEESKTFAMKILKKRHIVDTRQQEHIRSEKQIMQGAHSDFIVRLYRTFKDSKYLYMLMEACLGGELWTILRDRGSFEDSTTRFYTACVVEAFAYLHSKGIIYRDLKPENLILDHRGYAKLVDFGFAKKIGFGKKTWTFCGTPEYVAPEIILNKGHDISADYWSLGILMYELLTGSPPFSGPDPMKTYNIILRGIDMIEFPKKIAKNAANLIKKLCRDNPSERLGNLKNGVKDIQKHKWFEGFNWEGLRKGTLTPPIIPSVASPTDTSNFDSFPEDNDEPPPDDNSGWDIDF
UniProt Q704Y3, sequence (whole entry, unmodified, looked up): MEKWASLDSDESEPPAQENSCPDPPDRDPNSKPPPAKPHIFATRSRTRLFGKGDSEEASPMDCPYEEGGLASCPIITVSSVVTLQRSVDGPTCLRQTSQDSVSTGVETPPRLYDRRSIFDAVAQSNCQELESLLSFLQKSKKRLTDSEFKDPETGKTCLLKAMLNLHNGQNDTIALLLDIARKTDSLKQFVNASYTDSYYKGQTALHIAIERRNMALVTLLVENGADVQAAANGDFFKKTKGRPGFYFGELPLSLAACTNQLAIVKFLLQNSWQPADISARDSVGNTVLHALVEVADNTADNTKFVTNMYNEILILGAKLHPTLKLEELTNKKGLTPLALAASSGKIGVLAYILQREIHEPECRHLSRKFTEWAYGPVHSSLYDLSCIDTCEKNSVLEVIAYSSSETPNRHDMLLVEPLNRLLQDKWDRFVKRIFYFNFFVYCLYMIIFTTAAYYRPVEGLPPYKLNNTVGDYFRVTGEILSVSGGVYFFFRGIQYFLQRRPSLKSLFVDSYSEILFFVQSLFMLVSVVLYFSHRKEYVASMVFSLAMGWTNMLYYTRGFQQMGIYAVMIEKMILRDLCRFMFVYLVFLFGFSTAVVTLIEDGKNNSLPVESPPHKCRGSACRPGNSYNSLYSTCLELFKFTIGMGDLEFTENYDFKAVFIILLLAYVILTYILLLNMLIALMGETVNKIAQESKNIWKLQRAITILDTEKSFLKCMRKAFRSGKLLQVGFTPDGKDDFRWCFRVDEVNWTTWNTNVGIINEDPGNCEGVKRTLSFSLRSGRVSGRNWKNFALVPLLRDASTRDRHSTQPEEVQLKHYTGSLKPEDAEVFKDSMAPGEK
UniProt O95881, sequence (whole entry, looked up): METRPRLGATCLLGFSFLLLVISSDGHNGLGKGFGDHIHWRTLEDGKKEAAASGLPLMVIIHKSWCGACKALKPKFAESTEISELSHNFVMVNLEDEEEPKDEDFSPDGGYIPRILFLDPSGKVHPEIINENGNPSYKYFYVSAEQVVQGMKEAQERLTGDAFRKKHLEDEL
UniProt P54310, sequence (whole entry, looked up): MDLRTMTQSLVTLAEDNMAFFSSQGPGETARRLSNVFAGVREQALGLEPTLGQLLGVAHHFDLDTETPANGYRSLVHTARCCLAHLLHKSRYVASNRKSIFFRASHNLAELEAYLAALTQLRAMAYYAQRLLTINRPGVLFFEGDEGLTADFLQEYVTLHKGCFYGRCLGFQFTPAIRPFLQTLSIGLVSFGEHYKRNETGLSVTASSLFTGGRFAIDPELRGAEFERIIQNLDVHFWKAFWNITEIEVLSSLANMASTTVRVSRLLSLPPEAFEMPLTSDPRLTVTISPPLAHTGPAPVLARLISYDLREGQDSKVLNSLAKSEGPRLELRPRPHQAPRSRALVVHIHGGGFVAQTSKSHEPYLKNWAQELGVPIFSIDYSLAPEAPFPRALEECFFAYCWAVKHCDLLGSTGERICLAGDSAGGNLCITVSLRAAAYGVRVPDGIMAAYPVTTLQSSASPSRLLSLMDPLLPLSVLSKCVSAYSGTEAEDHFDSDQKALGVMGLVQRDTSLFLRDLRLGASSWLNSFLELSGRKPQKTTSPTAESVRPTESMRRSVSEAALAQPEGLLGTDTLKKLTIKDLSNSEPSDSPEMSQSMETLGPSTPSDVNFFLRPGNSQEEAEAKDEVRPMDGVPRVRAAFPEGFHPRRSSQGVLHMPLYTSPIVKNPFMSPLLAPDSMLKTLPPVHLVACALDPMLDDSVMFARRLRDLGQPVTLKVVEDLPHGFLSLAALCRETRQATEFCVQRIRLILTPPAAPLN
UniProt P33533, sequence (whole entry, looked up): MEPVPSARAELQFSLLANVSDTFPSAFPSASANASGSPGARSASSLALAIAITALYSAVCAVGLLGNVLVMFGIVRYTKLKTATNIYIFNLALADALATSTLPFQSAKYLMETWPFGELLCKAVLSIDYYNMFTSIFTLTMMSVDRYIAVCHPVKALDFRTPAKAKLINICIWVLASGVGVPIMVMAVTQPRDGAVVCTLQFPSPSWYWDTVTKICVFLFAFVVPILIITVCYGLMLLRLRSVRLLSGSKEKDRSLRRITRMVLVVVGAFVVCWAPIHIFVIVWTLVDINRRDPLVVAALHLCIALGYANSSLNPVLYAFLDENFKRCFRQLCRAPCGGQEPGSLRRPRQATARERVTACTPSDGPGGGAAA

SMILES = O=C1NC(=O)c2c1c1cc(F)c[n+]3c1c1c2c2cc(O)ccc2[n]1[Ru-4]312([N]=C=S)[S+]3CC[S+]1CC[S+]2CC3 (stereo not drawn); target = cGMP-dependent protein kinase 1, isoform beta (PRKG1, Homo sapiens, UniProt Q13976); test = enzyme activity; setting = 100 nM, human enzyme, with: 10 µM ATP; how to read = baseline: untreated; endpoint = remaining activity; result = 8%
SMILES = CN(C)[C@H]1C[C@@]23CC[C@@]4(O2)C(=CC[C@]2(C)[C@@H](c5ccc6ccncc6c5)CC[C@H]24)C=C3[C@@H](O)[C@@H]1O; target = ROCK1; test = probe labelling, inhibitor, KiNativ ATP probe MS; test system = native lysate; setting = 0.1 µM; endpoint = inhibition; result = 15.2%
SMILES = CCCCC/C=C\C/C=C\C/C=C\C/C=C\CCCC(=O)NCCc1ccc(O)c(O)c1; target = Trpv1 (Mus musculus, UniProt Q704Y3, E571A); test = patch clamp; setting = E571A mutant channel; how to read = baseline: 3 mM 2-APB current; endpoint = maximal open probability; result = 0.42 ± 0.07
SMILES = CC[C@H](C)[C@@H]1NC(=O)[C@H](CC(N)=O)NC(=O)[C@@H]2CCCN2C(=O)[C@@H](NC(=O)[C@H](CC(N)=O)NC(=O)[C@@H](N)CCC(N)=O)COC(=O)[C@H](CCSC)NC(=O)[C@H](Cc2c[nH]c3ccccc23)NC(=O)CN(CCC(N)=O)C(=O)CNC(=O)[C@H](Cc2ccccc2)NC1=O; target = Fsr quorum sensing protein (Enterococcus faecalis, UniProt A0ACD6TCR9); test = cell-based activity; setting = concentration not given; endpoint = activity; result = inactive
SMILES = CC(C)C[C@H](NC(=O)[C@H](CCC(=O)O)NC(=O)[C@@H](N)Cc1ccccc1)C(=O)N[C@@H](CCC(=O)O)C(=O)N[C@@H](CCCNC(=N)N)C(=O)N[C@@H](CCCNC(=N)N)C(=O)N[C@@H](Cc1ccccc1)C(=O)N[C@@H](CCCCN)C(=O)N[C@@H](CCC(N)=O)C(=O)N[C@@H](CCC(N)=O)C(=O)O; target = NKX2-3; test = ChIP-qPCR, item: PDE1C promoter; test system = TPCs; setting = concentration not given; endpoint = promoter binding; result = 0.0271 % input and 0.0307 % input
SMILES = CS(C)(=O)=Nc1ccc(-c2ccc(-c3nc4cc(O[C@@H]5CO[C@H]6[C@@H]5OC[C@H]6O)[nH]c4cc3F)cc2)cc1; target = DDR1 (Homo sapiens, UniProt Q08345); test = enzyme activity, inhibitor; setting = 10 µM; endpoint = inhibition; result = -12%
SMILES = Cc1cc(-c2ccc3ccccc3c2)nnc1NCCN1CCN(C)CC1; target = ADRB1 (Homo sapiens, UniProt P08588); test = antagonist; setting = concentration not given; endpoint = antagonist activity; result = negative
SMILES = Oc1ccc(C[C@@H]2CN([C@@H](CC3CCCCC3)CN3CCC[C@H]3CN3CCNC[C@@H]3Cc3ccc4ccccc4c3)CCN2CCCC2CCCC2)cc1; target = Oprd1 (Rattus norvegicus, UniProt P33533); test = radioligand binding; test system = rat brain membranes; setting = 500 nM, pH 7.5, 25 °C, with: 2 nM [3H]DPDPE; endpoint = remaining binding; result = 93.3%
SMILES = CC(C)CC(O)(CC(C)C)c1cn(C(=O)N2CCCC2)nn1; target = Lipe (Mus musculus, UniProt P54310); test = enzyme activity, inhibitor; test system = mouse, brain; setting = i.p., 0.8 mg/kg, 4 h, protein level; how to read = baseline: vehicle; endpoint = ratio of ratios; result = 0.52
SMILES = C#CCCCCOc1ccc2c(c1)CCCN2C(=O)CCl; target = Thioredoxin domain-containing protein 12 (TXNDC12, Homo sapiens, UniProt O95881); test = mass spectrometry profiling; test system = H460 cell lysate; setting = 100 µM over 10 µM, UniProt O95881; how to read = baseline: high over low concentration; endpoint = reactivity ratio; result = 0.641
SMILES = N[C@H](C(=O)N1CCCC1)C1CCN(c2nccc3c(-c4ncc(Cl)cc4Cl)cccc23)CC1; target = ROCK1; test = kinase activity, inhibitor; setting = 10 µM, with: ATP 1 mM; endpoint = inhibition; result = -0.4%
SMILES = CC(C)[C@H]1NC(=O)C[C@H]2/C=C/CCSSC[C@@H](NC1=O)C(=O)N[C@H](Cc1cccc3ccccc13)C(=O)NCC(=O)O2; target = Aurora kinase A, with TPX2 (AURKA, Homo sapiens, UniProt O14965); setting = 10 µM; endpoint = inhibition; result = -1.2%

For quick reference, copied from above:
SMILES = CC(C)C[C@H](NC(=O)[C@H](CCC(=O)O)NC(=O)[C@@H](N)Cc1ccccc1)C(=O)N[C@@H](CCC(=O)O)C(=O)N[C@@H](CCCNC(=N)N)C(=O)N[C@@H](CCCNC(=N)N)C(=O)N[C@@H](Cc1ccccc1)C(=O)N[C@@H](CCCCN)C(=O)N[C@@H](CCC(N)=O)C(=O)N[C@@H](CCC(N)=O)C(=O)O; target = NKX2-3; test = ChIP-qPCR, item: PDE1C promoter; test system = TPCs; setting = concentration not given; endpoint = promoter binding; result = 0.0271 % input and 0.0307 % input
